Measured values from different studies.

With `COC1=CC(c2ccc[nH]2)=NC1=CNC12CC3CC(CC(C3)C1)C2.Cl` the MIC was 1 µg/mL (Candidozyma auris; broth microdilution; CDC AR Bank #0381; 24 h).
`N=C(N)NCCC[C@@H]1NC(=O)[C@H](CCCNC(=N)N)NC(=O)[C@H](CCCNC(=N)N)NC(=O)[C@@H](CCCNC(=N)N)NC(=O)[C@H](Cc2ccc3ccccc3c2)NC(=O)[C@H](Cc2ccc3ccccc3c2)NC(=O)[C@H](Cc2ccc3ccccc3c2)NC1=O` gave an MIC of 8 µg/mL (Paecilomyces variotii; MYA-3630).
`Cc1c(CN(C)C(=O)/C=C/c2cnc3c(c2)CC(N)C(=O)N3)oc2ccccc12` (stereo not drawn) gave an MIC of 8 µg/mL (Escherichia coli; broth microdilution; AR-0162).
The MIC of `COc1c(NC(=O)c2ccc(NC(=O)[C@H](Cc3c[nH]nn3)NC(=O)c3ccc(NC(=O)/C(C)=C/c4ccc(O)cc4)cc3)cc2)ccc(C(=O)Nc2ccc(C(=O)O)cc2)c1O` is reported as 2 µg/mL (Micrococcus luteus; broth microdilution; DSM 1790).
For `CC[C@H](C)[C@@H]1NC(=O)[C@@H]([C@@H](C)O)NC(=O)CNC(=O)[C@H](CC(=O)O)NC(=O)CNC(=O)[C@H](CC(=O)O)NC(=O)CNC(=O)[C@H]2CCCCN2C(=O)[C@@H](NC(=O)[C@H](CC(=O)O)NC(=O)/C=C/CCCCCCCCCC(C)C)CNC(=O)[C@@H]2CCCN2C1=O`, the MIC was 4 µg/mL (Staphylococcus simulans; broth microdilution; 22, Mueller-Hinton broth, Mg2+ 10 mg/L; 16 h, 30 °C, added: Ca2+ 1.0 mM).
`COc1cc(C(=O)O)ccc1NC(=O)c1ccc(NC(=O)c2ccc(NC(=O)[C@H](Cc3c[nH]nn3)NC(=O)c3ccc(NC(=O)/C(C)=C/c4ccc(O)cc4)cc3)cc2)c(OC)c1O` has an MIC of 1 µg/mL (Micrococcus luteus; broth microdilution; DSM 1790).
With `CN[C@H](CC(C)C)C(=O)N[C@H]1C(=O)N[C@@H](CC(N)=O)C(=O)N[C@H]2C(=O)N[C@H]3C(=O)N[C@H](C(=O)N[C@H](C(=O)O)c4cc(O)cc(O)c4-c4cc3ccc4O)[C@H](O)c3ccc(c(Cl)c3)Oc3cc2cc(c3O[C@@H]2O[C@H](CO)[C@@H](O)[C@H](O)[C@H]2O[C@H]2C[C@](C)(N)[C@H](O)[C@H](C)O2)Oc2ccc(cc2Cl)[C@H]1O` the MIC was 0.25 µg/mL (Micrococcus luteus; microbial growth, broth dilution; DSM1790; 48 h).
`CN[C@H](CC(C)C)C(=O)N[C@H]1C(=O)N[C@@H](CC(N)=O)C(=O)N[C@H]2C(=O)N[C@H]3C(=O)N[C@H](C(=O)N[C@H](C(=O)NCC(N)=O)c4cc(O)cc(O)c4-c4cc3ccc4O)[C@H](O)c3ccc(c(Cl)c3)Oc3cc2cc(c3O[C@@H]2O[C@H](CO)[C@@H](O)[C@H](O)[C@H]2O[C@H]2C[C@](C)(NCc3ccc(OCc4cn(CC(=O)N[C@H](C(=O)N[C@@H](CCN)C(=O)N[C@H]5CCNC(=O)[C@H]([C@@H](C)O)NC(=O)[C@H](CCN)NC(=O)[C@H](CCN)NC(=O)[C@H](CC(C)C)NC(=O)[C@@H](CC(C)C)NC(=O)[C@H](CCN)NC5=O)[C@@H](C)O)nn4)c(OC)c3)[C@H](O)[C@H](C)O2)Oc2ccc(cc2Cl)[C@H]1O` gave an MIC of no more than 0.008 µg/mL (Staphylococcus simulans; broth microdilution; 22, cation-adjusted Mueller-Hinton broth; 20 to 24 h, 37 °C, 0.002% polysorbate 80).
The MIC of `CC[C@H](C)[C@H](NC(=O)[C@H](CCC(N)=O)NC(=O)[C@H](Cc1ccccc1)NC(=O)[C@H](CC(N)=O)NC(=O)[C@H](CCCCN)NC(=O)[C@H](CC(C)C)NC(=O)[C@H](CCCNC(=N)N)NC(=O)[C@H](CCCCN)NC(=O)[C@H](CCCCN)NC(=O)[C@@H](NC(=O)[C@H](CO)NC(=O)[C@H](CCCCN)NC(=O)CNC(=O)[C@H](CC(C)C)NC(=O)[C@H](CCCCN)NC(=O)[C@H](CCCCN)NC(=O)[C@H](CC(C)C)NC(=O)[C@H](CCCCN)NC(=O)[C@H](CCCCN)NC(=O)[C@H](CCCNC(=N)N)NC(=O)[C@H](CC(C)C)NC(=O)CNC(=O)[C@@H](N)CCCNC(=N)N)[C@@H](C)CC)C(=O)NCC(=O)N[C@@H](Cc1ccccc1)C(=O)N[C@@H](CO)C(=O)N[C@H](C(=O)N1CCC[C@H]1C(=O)N[C@@H](Cc1ccccc1)C(=O)N[C@@H](C)C(=O)NCC(=O)O)C(C)C` is reported as 4 µg/mL (Micrococcus luteus; broth microdilution; ATCC 4698; 43 h, 37 °C, cation-adjusted Mueller-Hinton broth).
With `COc1cc(C(=O)Nc2ccc(C(=O)O)c(O)c2OC)ccc1NC(=O)c1ccc(NC(=O)[C@H](Cc2c[nH]nn2)NC(=O)c2ccc(NC(=O)/C(C)=C/c3ccc(O)cc3)cc2)cc1` the MIC was 2 µg/mL (Micrococcus luteus; broth microdilution; DSM 1790).
With `C=C[C@]1(C)C[C@@H](OC(=O)CSc2ccc(NC(=O)c3ccco3)cc2)[C@]2(C)[C@H](C)CC[C@]3(CCC(=O)[C@H]32)[C@@H](C)[C@@H]1O` the MIC was 0.00195 µg/mL (Mycoplasma gallisepticum; chicken lung isolates; 40 mg/kg to chickens).
The MIC of `COc1c(NC(=O)c2ccc(NC(=O)c3ccc(NC(=O)[C@H](Cc4c[nH]nn4)NC(=O)c4ccc(NC(=O)/C(C)=C/c5ccc(O)cc5)cc4)cc3)c(OC)c2O)ccc(C(=O)O)c1O` is reported as 0.5 µg/mL (Micrococcus luteus; microbial growth, broth dilution; DSM1790).
The MIC of `C#CCOc1ccc(CN[C@@]2(C)C[C@H](O[C@H]3[C@H](Oc4c5cc6cc4Oc4ccc(cc4Cl)[C@@H](O)[C@@H](NC(=O)[C@@H](CC(C)C)NC)C(=O)N[C@@H](CC(N)=O)C(=O)N[C@H]6C(=O)N[C@H]4C(=O)N[C@H](C(=O)N[C@H](C(=O)N[C@@H](CCCNC(=N)N)C(N)=O)c6cc(O)cc(O)c6-c6cc4ccc6O)[C@H](O)c4ccc(c(Cl)c4)O5)O[C@H](CO)[C@@H](O)[C@@H]3O)O[C@@H](C)[C@H]2O)cc1OC` is reported as 0.125 µg/mL (Staphylococcus simulans; broth microdilution; 22, cation-adjusted Mueller-Hinton broth; 20 to 24 h, 37 °C, 0.002% polysorbate 80).
`CC1C=CC=CC(C)C2C=CC3CC(C)(O)C(Cl)C(C)C3C2C(=O)C(Cl)(Cl)C(=O)C(C)C(=O)O1` (stereo not drawn) gave an MIC of 0.1 µg/mL (Staphylococcus aureus; MRSA clinical isolate; resistant: OXA,CLI,DOX,ERY,GEN,SXT,TET).
`N=C(N)NCCC[C@@H]1NC(=O)[C@H](CCCNC(=N)N)NC(=O)[C@@H](CCCNC(=N)N)NC(=O)[C@@H](CCCNC(=N)N)NC(=O)[C@@H](C(c2ccccc2)c2ccccc2)NC(=O)[C@@H](Cc2c[nH]c3ccccc23)NC(=O)[C@@H](C(c2ccccc2)c2ccccc2)NC1=O` has an MIC of 8 µg/mL (Paecilomyces variotii; MYA-3630).
The MIC of `COc1cc(C(=O)Nc2ccc(C(=O)O)c(O)c2)ccc1NC(=O)c1ccc(NC(=O)[C@H](Cc2c[nH]nn2)NC(=O)c2ccc(NC(=O)/C(C)=C/c3ccc(O)cc3)cc2)cc1` is reported as 4 µg/mL (Micrococcus luteus; broth microdilution; DSM 1790).
With `CC(C)C[C@@H]1NC(=O)[C@@H](CC(C)C)NC(=O)[C@H](CCN)NC(=O)[C@@H](NC(=O)[C@H](CCN)NC(=O)[C@@H](N)[C@@H](C)O)CCNC(=O)[C@H]([C@@H](C)O)NC(=O)[C@H](CCN)NC(=O)[C@H](CCN)NC1=O` the MIC was greater than 138 µM (Staphylococcus simulans; broth microdilution; 22, cation-adjusted Mueller-Hinton broth).
`C[C@@H]1C(=O)O[C@@H](C)/C=C/C=C\[C@@H](C)[C@@H]2C=C[C@@H]3C[C@@]4(C)O[C@H]4[C@@H](C)[C@H]3[C@@H]2C(=O)C(Cl)(Cl)C1=O` gave an MIC of 0.05 µg/mL (Staphylococcus aureus; MRSA clinical isolate; resistant OXA/CLI/ERY).
`C#CCNC(=O)[C@H]1NC(=O)[C@H]2NC(=O)[C@H](NC(=O)[C@@H]3NC(=O)[C@H](CC(N)=O)NC(=O)[C@H](NC(=O)[C@@H](CC(C)C)NC)[C@H](O)c4ccc(c(Cl)c4)Oc4cc3cc(c4O[C@@H]3O[C@H](CO)[C@@H](O)[C@H](O)[C@H]3O[C@H]3C[C@](C)(N)[C@H](O)[C@H](C)O3)Oc3ccc(cc3Cl)[C@H]2O)c2ccc(O)c(c2)-c2c(O)cc(O)cc21` has an MIC of 0.25 µg/mL (Staphylococcus simulans; broth microdilution; 22, cation-adjusted Mueller-Hinton broth; 20 to 24 h, 37 °C, 0.002% polysorbate 80).
With `CC[C@H](C)[C@H](NC(=O)[C@H](CC(N)=O)NC(=O)[C@H](CCC(N)=O)NC(=O)[C@H](CC(C)C)NC(=O)[C@@H](NC(=O)[C@H](Cc1ccccc1)NC(=O)[C@H](Cc1ccc(O)cc1)NC(=O)[C@H](CO)NC(=O)[C@H](CS)NC(=O)[C@H](CC(C)C)NC(=O)[C@H](CCCCN)NC(=O)[C@H](CCCCN)NC(=O)[C@H](CCCNC(=N)N)NC(=O)[C@H](CCCNC(=N)N)NC(=O)[C@H](CS)NC(=O)[C@H](CCCNC(=N)N)NC(=O)[C@H](CCCCN)NC(=O)[C@H](CCCNC(=N)N)NC(=O)[C@H](CCCCN)NC(=O)[C@H](Cc1ccccc1)NC(=O)[C@@H](N)CCCNC(=N)N)[C@@H](C)CC)C(=O)N[C@@H](CC(N)=O)C(=O)N[C@@H](Cc1ccccc1)C(=O)N[C@@H](CCCNC(=N)N)C(=O)N[C@@H](CC(C)C)C(=O)N[C@@H](CCCNC(=N)N)C(=O)N[C@@H](CCCCN)C(=O)NCC(=O)N[C@@H](CCCCN)C(=O)O` the MIC was 8 µg/mL (Micrococcus luteus; broth microdilution; ATCC 4698; 43 h, 37 °C, cation-adjusted Mueller-Hinton broth).
For `C=C(NC(=O)c1csc(-c2nc3c(cc2O)-c2nc(cs2)C(=O)NC(C(C)O)C(=O)NC(=C(C)OC)c2nc(cs2)C(=O)NC2c4nc(cs4)C(=O)NC(COC(=O)c4c5c6c(cccc6n4O)COC(=O)C(OC4CC(C)(O)C(N(C)C)C(C)O4)C2OC5)c2nc-3cs2)n1)C(N)=O` (stereo not drawn), the MIC was 0.0078 µg/mL (Streptococcus pneumoniae; -25; used for PK-PD modelling).

Some of these lines once more:
For `CC[C@H](C)[C@@H]1NC(=O)[C@@H]([C@@H](C)O)NC(=O)CNC(=O)[C@H](CC(=O)O)NC(=O)CNC(=O)[C@H](CC(=O)O)NC(=O)CNC(=O)[C@H]2CCCCN2C(=O)[C@@H](NC(=O)[C@H](CC(=O)O)NC(=O)/C=C/CCCCCCCCCC(C)C)CNC(=O)[C@@H]2CCCN2C1=O`, the MIC was 4 µg/mL (Staphylococcus simulans; broth microdilution; 22, Mueller-Hinton broth, Mg2+ 10 mg/L; 16 h, 30 °C, added: Ca2+ 1.0 mM).
`COc1cc(C(=O)O)ccc1NC(=O)c1ccc(NC(=O)c2ccc(NC(=O)[C@H](Cc3c[nH]nn3)NC(=O)c3ccc(NC(=O)/C(C)=C/c4ccc(O)cc4)cc3)cc2)c(OC)c1O` has an MIC of 1 µg/mL (Micrococcus luteus; broth microdilution; DSM 1790).
